Experimental data from different studies.
Protocols differ between the studies behind these lines. ± gives the spread as reported.

SMILES | target | test | setting | IC50
Cc1cc(C)c(S(=O)(=O)Nc2ccc3c(c2)ncn3Cc2ccccc2)c(C)c1 | NR1I2 (Homo sapiens, UniProt O75469) | – | – | 0.026 µM
COc1ccc2c(c1)CC[C@H]1[C@@H]3[C@H](OCCC#N)CC(=O)[C@@]3(C)CC[C@H]21 | HSD17B1 (Homo sapiens, UniProt P14061) | enzyme activity, inhibitor, radiometric | – | 0.42 to 0.64 µM
N=C(N)NCCC[C@H](NC(=O)[C@H](CCCNC(=N)N)NC(=O)[C@H](CC(N)=O)NC(=O)[C@H](CCCNC(=N)N)NC(=O)[C@@H]1CCCN1C(=O)[C@H](CCCCN)NC(=O)[C@H](CCCCN)NC(=O)[C@H](CCC(N)=O)NC(=O)[C@H](CC(=O)O)NC(=O)[C@@H](N)Cc1c[nH]c2ccccc12)C(=O)O | Neuropilin-1 (NRP1, Homo sapiens, UniProt O14786) | inhibitor, plate binding | 1 h, 25 °C | 11 µM
CC[C@H](C)[C@H](NC(=O)[C@H](CCCNC(=N)N)NC(=O)[C@H](CCCCN)NC(=O)[C@@H]1CCCN1C(=O)[C@H](CO)NC(C)=O)C(=O)N[C@@H](C)C(=O)N[C@@H](CCCCN)C(=O)N[C@@H](CCCNC(=N)N)C(=O)N[C@@H](CCCNC(=N)N)C(=O)N[C@@H](CO)C(N)=O | N-terminal Xaa-Pro-Lys N-methyltransferase 1 (Homo sapiens, UniProt Q9BV86) | methyltransferase activity, inhibitor, SAHH-coupled fluorescence | 60 min, 0.5% DMSO, single pin transfer, together with: RCC1-6 peptide 3 µM, SAM 100 µM | 10.5 µM
Cc1ccc(CNC(=O)C(CCc2ccccc2)NC(=O)C(NC(=O)c2ccc(OCc3ccc(C(C)(C)C)cc3)cc2)C(C)O)cc1 (centres unmarked) | Proteasome component C5/PSMB8 (Homo sapiens, UniProt P20618+P28062) | inhibitor | – | 0.027 µM
Cc1cccc2c(=O)c3c(O)cc(OCC(=O)O)cc3oc12 | CDK9 (Homo sapiens, UniProt P50750) | enzyme activity, inhibitor, ATP luminescence | – | 6.6 µM
COC(OC)c1ccc(-c2ccc(O)cc2)c(C(=C2C=CC(=O)C=C2)c2ccc(O)cc2)c1C#Cc1ccc(O)cc1 | PDE4D (Homo sapiens, UniProt Q08499) | enzyme activity, inhibitor, fluorescence | – | > 10 µM
C/C=C1\NC(=O)[C@H](C)NC(=O)[C@@H](NC(=O)[C@@H](Cc2ccc(O)cc2)NC(=O)[C@@H](NC(=O)/C(C)=C/C)C(C)C)[C@@H](C)OC(=O)[C@H](CCCCc2ccc(O)cc2)NC(=O)[C@@H](CCC(=O)O)NC1=O | CELA1 (Sus scrofa, UniProt P00772) | inhibitor | – | 1.15 ± 0.46 µM
Cc1cc(Nc2cc(CN(C)C)cc(NC(=O)c3cccc(Nc4ccnc5ccccc45)c3)c2)nc(N)n1 | DNA polymerase eta (POLH, Homo sapiens, UniProt Q9Y253) | nucleotide incorporation, inhibitor | together with: 50 µM dNTP | 7.5 µM
CC(C)Sc1cccc(O)c(=O)c1O | Ribonuclease HI (rnhA, Escherichia coli, UniProt P0A7Y4) | enzyme activity, inhibitor | – | 2.4 µM
CC[C@H](C)[C@H](NC(=O)[C@H](CC(C)C)NC(=O)[C@H](C)NC(=O)c1ccc(CN2CCNCC2)cc1)C(=O)N[C@@H](Cc1ccccc1)C(N)=O | G1/S-specific cyclin-D1, with CDK4 (Homo sapiens, UniProt P24385) | binding to cyclin groove, inhibitor, fluorescence polarization competition | – | 51.5 ± 21.3 µM
CN(C)c1ccc2c(c1)C(=O)N(CCS)C2=O | blaNDM-1 (Klebsiella pneumoniae, UniProt C7C422) | enzyme activity, inhibitor | pH 7 | 12.9 µM
COC(=O)C1CN1S(=O)(=O)c1ccc2cc(C)ccc2c1 (centres unmarked) | PDIA3 (Homo sapiens, UniProt P30101) | enzyme activity, inhibitor, absorbance | pH 7.6 | > 200 µM
N[C@@H](Cc1c[nH]c2ccc(OCc3ccccc3-c3ccco3)cc12)C(=O)O | SLC7A5 (Homo sapiens, UniProt Q01650) | transporter uptake, inhibitor, radiometric | – | 32 µM

Repeated from above:
SMILES | target | test | setting | IC50
Cc1ccc(CNC(=O)C(CCc2ccccc2)NC(=O)C(NC(=O)c2ccc(OCc3ccc(C(C)(C)C)cc3)cc2)C(C)O)cc1 (centres unmarked) | Proteasome component C5/PSMB8 (Homo sapiens, UniProt P20618+P28062) | inhibitor | – | 0.027 µM
Cc1cccc2c(=O)c3c(O)cc(OCC(=O)O)cc3oc12 | CDK9 (Homo sapiens, UniProt P50750) | enzyme activity, inhibitor, ATP luminescence | – | 6.6 µM
